Results pooled from the literature.
Protocols differ between the studies behind these lines. ± marks the error that the study gave.
Cell line: HepG2

| Structure (SMILES) | assay | system | conditions | scale | endpoint | result |
| --- | --- | --- | --- | --- | --- | --- |
| Cc1ccc(OCCc2ccc(C3CC3)cc2)c(C(N)=O)c1 | – | galactose medium | 3 (unit not given) | – | CC50 | 8.8 µM |
| Fc1cccc(COc2ccc(Nc3ccnc4cc(-c5cccc(N6CCOCC6)c5)ccc34)cc2Cl)c1 | cytotoxicity, MTT | – | 48 h | – | TC50 | > 5 µM |
| CC[C@H](C)[C@H](NC(=O)[C@H](CCCCN)NC(=O)[C@H](CCCCN)NC(=O)[C@H](Cc1ccccc1)NC(=O)[C@@H](NC(=O)[C@@H](NC(=O)[C@H](CCCNC(=N)N)NC(=O)[C@H](Cc1ccccc1)NC(=O)[C@@H](NC(=O)[C@H](CCCCN)NC(=O)[C@H](CCCCN)NC(=O)[C@@H](N)CCSC)[C@@H](C)CC)C(C)C)[C@@H](C)CC)C(=O)N[C@@H](CC(C)C)C(=O)N[C@@H](CCCCN)C(=O)N[C@@H](CCCNC(=N)N)C(=O)N[C@@H](CC(C)C)C(=O)N[C@H](C(=O)N[C@H](C(=O)O)C(C)C)[C@@H](C)CC | CCK-8 | – | 64 µg/mL, 24 h | – | viability | 7.96% |
| NC(=O)c1cc(Br)ccc1OCCc1cccc(F)c1 | – | – | 3 (unit not given) | baseline: CC50 glucose over CC50 galactose | selectivity ratio | > 2 |
| O=S(=O)(c1ccc(-c2ccc3nccc(Nc4ccc5[nH]nnc5c4)c3c2)cc1)N1CCOCC1 | cytotoxicity, MTT | – | 48 h | – | TC50 | > 20 µM |
| O=S(=O)(c1ccc(-c2ccc3c(Nc4ccc(OCc5ccccc5)c(Cl)c4)cnnc3c2)cc1)N1CCOCC1 | cytotoxicity, MTT | – | 48 h | – | TC50 | > 11 µM |
| CNC(=O)c1cc(-c2ccoc2)ccc1OCCc1cccc(F)c1 | – | – | 3 (unit not given) | baseline: CC50 glucose over CC50 galactose | selectivity ratio | < 1 |
| CC(c1cccnc1)n1c(=S)[nH]c2ccc(Cl)cc2c1=O (centres unmarked) | – | – | 24 h | – | LD50 | > 100 µM |
| O=C(NC1COC1)c1cc(-c2ccoc2)ccc1OCCc1cccc(F)c1 | – | galactose medium | 3 (unit not given) | – | CC50 | 40 ± 7 µM |
| N#Cc1cnc2ccc(-c3cccc(N4CCOCC4)c3)cc2c1Nc1ccc(OCc2cccc(F)c2)c(Cl)c1 | cytotoxicity, MTT | – | 48 h | – | TC50 | > 15 µM |
| O=c1[nH]c2cc(CO)c(Cl)cc2c(=O)n1Cc1cccnc1 | – | – | 24 h | – | LD50 | > 100 µM |
| Cc1cc(Nc2ccnc3ccc(-c4ccc(S(=O)(=O)N5CCOCC5)cc4)cc23)on1 | cytotoxicity, MTT | – | 48 h | – | TC50 | > 20 µM |
| Cc1ccc(OCCc2cc(F)cc(F)c2)c(C(=O)NCC2CC2)c1 | – | galactose medium | 3 (unit not given) | – | CC50 | 19 ± 6.8 µM |
| O=c1ccc2ccccc2o1 | refers to: cell count | – | concentration not given, 24 h, phospholipidosis and steatosis panel | – | probability of response | 39.6% |
| Cc1cscc1-c1ccc(OCCc2cc(F)cc(F)c2)c(C(N)=O)c1 | – | – | 3 (unit not given) | baseline: CC50 glucose over CC50 galactose | selectivity ratio | < 1 |
| O=S(=O)(c1ccc(-c2ccc3c(Nc4ccc(OCc5ccccc5)c(Cl)c4)ccnc3c2)cc1)N1CCOCC1 | cytotoxicity, MTT | – | 48 h | – | TC50 | > 3 µM |
| N#Cc1cnc(Nc2ccnc3ccc(-c4ccc(S(=O)(=O)N5CCOCC5)cc4)cc23)cn1 | cytotoxicity, MTT | – | 48 h | – | TC50 | > 20 µM |
| CCN(N=O)C(N)=O | – | – | maximum tested, 24 (unit not given) | – | micronucleated cells | 1.4% |
| COc1ccc(NC(=O)N2CCCCN3[C@H](CN(C)C)[C@H](c4ccc(C#Cc5ccccc5)cc4)[C@@H]3C2)cc1 | – | – | 72 h | baseline: HepG2 CC50 over EC50 | selectivity index | 54 |
| CN(C)N=O | micronucleus | – | concentration not given, at maximum tested concentration | baseline: vehicle | micronucleus frequency | 1.1 fold |
| CN1CCN(S(=O)(=O)c2ccc(-c3ccc4c(Nc5ccc(OCc6cccc(F)c6)c(Cl)c5)nccc4c3)cc2)CC1 | cytotoxicity, MTT | – | 48 h | – | TC50 | > 15 µM |
| CNC(=O)c1cc(C(F)F)ccc1OCCc1cccc(F)c1 | – | – | 3 (unit not given), human | – | CC50 | 73 ± 28 µM |
| CCc1nnc(Nc2ccnc3ccc(-c4ccc(S(=O)(=O)N5CCOCC5)cc4)cc23)s1 | cytotoxicity, MTT | – | 48 h | – | TC50 | > 20 µM |
| CCc1ccc(OCCc2cccc(F)c2)c(C(N)=O)c1 | – | – | 3 (unit not given) | baseline: CC50 glucose over CC50 galactose | selectivity ratio | > 1 |
| N.N.[Cl][Pt][Cl] | – | – | maximum tested | – | micronucleated cells | 1.7% |
| Cc1cnnc(Nc2ccnc3ccc(-c4ccc(S(=O)(=O)N5CCOCC5)cc4)cc23)c1 | cytotoxicity, MTT | – | 48 h | – | TC50 | > 20 µM |
